Results collected from several papers.
Parts stem from different laboratories: compare values within a part only. Several values in a cell are separate wells, animals, samples, runs or records.
UniProt Q9UPZ9, sequence (whole entry, looked up): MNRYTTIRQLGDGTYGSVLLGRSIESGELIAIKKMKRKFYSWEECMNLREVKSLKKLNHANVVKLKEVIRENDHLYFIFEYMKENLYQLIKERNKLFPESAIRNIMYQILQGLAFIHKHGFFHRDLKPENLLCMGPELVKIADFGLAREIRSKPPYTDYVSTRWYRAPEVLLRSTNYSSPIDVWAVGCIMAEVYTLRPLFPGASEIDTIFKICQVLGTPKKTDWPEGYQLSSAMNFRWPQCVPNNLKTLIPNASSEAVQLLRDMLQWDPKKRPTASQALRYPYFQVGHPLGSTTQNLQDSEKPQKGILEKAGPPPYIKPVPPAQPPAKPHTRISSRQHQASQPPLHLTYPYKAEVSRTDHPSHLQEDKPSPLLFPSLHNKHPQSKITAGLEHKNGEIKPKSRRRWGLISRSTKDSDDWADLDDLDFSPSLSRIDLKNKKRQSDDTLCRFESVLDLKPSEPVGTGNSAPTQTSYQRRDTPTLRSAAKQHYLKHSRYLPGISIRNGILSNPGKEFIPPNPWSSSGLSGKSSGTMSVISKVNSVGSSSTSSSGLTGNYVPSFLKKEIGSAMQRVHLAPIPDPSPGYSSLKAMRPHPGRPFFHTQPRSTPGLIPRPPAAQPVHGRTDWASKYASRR
UniProt P36507, sequence (whole entry, looked up): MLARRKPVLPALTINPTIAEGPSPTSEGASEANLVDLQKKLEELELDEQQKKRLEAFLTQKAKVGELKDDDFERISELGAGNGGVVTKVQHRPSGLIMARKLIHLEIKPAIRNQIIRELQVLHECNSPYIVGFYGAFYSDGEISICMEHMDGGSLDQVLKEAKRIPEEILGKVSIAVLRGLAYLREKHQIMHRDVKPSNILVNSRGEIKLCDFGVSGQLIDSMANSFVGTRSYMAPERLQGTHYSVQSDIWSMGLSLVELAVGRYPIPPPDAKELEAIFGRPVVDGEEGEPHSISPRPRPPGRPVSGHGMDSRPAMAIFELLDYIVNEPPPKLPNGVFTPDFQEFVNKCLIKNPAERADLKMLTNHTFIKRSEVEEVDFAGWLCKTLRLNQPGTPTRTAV
UniProt P07947, sequence (whole entry, looked up): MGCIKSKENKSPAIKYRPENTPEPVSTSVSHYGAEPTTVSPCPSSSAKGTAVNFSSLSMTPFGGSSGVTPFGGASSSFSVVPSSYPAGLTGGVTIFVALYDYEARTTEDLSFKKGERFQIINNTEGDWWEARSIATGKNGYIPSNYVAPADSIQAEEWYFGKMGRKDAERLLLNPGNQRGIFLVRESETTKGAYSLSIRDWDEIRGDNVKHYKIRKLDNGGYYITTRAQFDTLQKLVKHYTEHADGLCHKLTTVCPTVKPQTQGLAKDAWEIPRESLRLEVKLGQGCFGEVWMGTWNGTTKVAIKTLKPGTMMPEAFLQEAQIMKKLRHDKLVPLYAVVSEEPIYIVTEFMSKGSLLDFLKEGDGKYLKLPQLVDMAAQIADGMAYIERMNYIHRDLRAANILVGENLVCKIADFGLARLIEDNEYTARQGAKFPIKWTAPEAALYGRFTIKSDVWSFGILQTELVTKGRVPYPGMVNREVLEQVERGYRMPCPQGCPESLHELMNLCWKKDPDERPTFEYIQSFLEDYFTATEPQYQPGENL
UniProt Q8NG66, sequence (whole entry, looked up): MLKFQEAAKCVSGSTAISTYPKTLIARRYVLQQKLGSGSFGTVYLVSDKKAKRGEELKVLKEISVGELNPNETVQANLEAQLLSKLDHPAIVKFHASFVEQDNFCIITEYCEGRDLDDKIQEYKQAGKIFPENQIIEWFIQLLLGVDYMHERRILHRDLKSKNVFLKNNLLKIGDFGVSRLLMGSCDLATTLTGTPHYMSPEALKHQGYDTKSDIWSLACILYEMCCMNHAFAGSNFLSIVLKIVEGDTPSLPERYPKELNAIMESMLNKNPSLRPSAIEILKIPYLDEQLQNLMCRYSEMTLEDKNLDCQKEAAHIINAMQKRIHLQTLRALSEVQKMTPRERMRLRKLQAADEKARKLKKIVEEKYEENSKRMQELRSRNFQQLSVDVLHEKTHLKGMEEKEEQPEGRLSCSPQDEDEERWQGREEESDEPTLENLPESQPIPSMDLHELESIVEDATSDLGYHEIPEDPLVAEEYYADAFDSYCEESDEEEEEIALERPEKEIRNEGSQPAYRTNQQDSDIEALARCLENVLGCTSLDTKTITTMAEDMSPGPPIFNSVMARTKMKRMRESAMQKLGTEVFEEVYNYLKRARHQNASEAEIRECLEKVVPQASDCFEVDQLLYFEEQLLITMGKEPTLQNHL
UniProt P22455, sequence (whole entry, looked up): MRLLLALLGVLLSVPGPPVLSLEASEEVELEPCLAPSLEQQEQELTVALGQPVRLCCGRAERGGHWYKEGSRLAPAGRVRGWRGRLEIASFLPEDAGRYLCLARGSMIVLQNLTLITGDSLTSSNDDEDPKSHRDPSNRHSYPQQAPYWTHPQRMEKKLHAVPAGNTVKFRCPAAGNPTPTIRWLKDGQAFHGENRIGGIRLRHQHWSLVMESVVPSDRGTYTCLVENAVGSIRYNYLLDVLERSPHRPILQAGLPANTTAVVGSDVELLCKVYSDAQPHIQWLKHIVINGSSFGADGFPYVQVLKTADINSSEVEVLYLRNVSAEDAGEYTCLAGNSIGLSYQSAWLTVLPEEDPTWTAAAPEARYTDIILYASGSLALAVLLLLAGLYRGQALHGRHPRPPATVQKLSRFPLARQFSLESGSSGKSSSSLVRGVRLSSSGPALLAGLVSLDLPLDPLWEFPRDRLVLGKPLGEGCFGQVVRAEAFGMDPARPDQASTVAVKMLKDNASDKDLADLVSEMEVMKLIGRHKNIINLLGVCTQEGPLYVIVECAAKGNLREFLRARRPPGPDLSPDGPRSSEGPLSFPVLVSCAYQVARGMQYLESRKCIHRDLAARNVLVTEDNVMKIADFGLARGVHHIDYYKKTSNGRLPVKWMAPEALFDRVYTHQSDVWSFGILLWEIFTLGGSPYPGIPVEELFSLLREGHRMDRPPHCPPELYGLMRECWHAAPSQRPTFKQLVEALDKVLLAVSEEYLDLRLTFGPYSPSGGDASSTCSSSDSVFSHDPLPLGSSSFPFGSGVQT
UniProt P51813, sequence (whole entry, looked up): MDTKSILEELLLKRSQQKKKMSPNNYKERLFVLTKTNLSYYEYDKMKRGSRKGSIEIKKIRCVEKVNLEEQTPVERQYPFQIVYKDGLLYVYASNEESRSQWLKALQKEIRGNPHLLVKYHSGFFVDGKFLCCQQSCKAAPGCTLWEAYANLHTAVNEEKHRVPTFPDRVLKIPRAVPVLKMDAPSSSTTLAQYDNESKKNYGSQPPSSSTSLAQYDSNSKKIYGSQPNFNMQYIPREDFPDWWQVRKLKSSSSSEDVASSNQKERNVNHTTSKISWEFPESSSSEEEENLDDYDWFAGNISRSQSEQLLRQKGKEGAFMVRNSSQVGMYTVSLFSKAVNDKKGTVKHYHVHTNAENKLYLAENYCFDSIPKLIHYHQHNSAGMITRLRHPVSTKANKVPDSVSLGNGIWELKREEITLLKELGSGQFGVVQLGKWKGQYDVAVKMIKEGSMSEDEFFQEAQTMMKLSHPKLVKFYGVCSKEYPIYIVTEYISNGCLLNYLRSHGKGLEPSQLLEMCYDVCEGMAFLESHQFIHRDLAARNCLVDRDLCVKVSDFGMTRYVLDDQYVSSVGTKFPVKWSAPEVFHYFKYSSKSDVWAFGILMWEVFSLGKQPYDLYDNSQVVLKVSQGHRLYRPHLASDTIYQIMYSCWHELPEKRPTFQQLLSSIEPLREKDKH

Series 1
Target: Ribosomal protein S6 kinase alpha-2 (RPS6KA2, Homo sapiens, UniProt Q15349)
UniProt Q15349, sequence (whole entry, looked up): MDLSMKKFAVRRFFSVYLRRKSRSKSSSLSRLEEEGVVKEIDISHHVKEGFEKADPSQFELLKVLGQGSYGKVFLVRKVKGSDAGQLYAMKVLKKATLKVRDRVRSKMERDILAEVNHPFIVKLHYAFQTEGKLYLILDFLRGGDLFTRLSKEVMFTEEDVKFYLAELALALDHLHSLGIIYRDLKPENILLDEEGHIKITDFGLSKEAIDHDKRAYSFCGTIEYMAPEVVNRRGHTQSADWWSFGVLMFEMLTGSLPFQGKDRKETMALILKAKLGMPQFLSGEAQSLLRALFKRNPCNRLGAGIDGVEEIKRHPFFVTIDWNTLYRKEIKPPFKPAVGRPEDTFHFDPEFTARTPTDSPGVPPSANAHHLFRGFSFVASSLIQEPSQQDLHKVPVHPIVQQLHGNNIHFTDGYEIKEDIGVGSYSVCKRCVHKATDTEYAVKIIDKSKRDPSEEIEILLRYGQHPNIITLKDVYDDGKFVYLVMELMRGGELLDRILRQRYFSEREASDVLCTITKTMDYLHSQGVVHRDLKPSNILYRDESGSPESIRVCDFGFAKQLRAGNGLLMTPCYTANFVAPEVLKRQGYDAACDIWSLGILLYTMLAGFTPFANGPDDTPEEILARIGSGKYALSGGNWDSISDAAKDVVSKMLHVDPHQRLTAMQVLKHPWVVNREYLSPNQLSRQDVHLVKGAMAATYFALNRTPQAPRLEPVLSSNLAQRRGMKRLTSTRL
Observed: enzyme activity
Action: inhibitor
Concentration: 0.5 µM
Reference: control
| Structure (SMILES) | remaining activity |
| --- | --- |
| CN([C@@H](Cc1ccc(OS(=O)(=O)c2cccc3cnccc23)cc1)C(=O)N1CCN(c2ccccc2)CC1)S(=O)(=O)c1cccc2cnccc12 | 102% |
| N#C/C(=C\c1ccc(O)c(O)c1)C(=O)NCc1ccccc1 | 94.2% |
| O=C1C(Cl)=C(N2C(=O)CCC2=O)C(=O)c2ccccc21 | 104% |
| O=C1Nc2ccc(Cl)cc2C1=Cc1cc(Cl)c(O)c(Cl)c1 | 71.9% |
| Cn1nc2c3c(cccc31)C(=O)c1ccccc1-2 | 93.5% |
| O=C(Nc1cccc(Nc2nccc(Nc3cccc(C(F)(F)F)c3)n2)c1)C1CC1 | 101% |
| CN(C)C[C@H]1CCn2c(c(C3=C(c4cn(C)c5ccccc45)C(=O)NC3=O)c3ccccc32)C1 | 3.57% |
| Nc1cccc(-c2cc3c(Oc4cccc(O)c4)ncnc3[nH]2)c1 | 91.5% |
| N#Cc1c(NC(=O)c2cccc3ccccc23)sc2c1CCCC2 | 95.3% |
| Cc1nc2cc3nc(-c4cccs4)cnc3cc2n1C | 95% |
| c1ccc(-c2[nH]ncc2-c2ccnc3ccccc23)nc1 | 96.3% |

Series 2
Structure (SMILES): COc1cc(-c2cn(C3CCc4ccccc4N(CC(F)(F)F)C3=O)nn2)ccc1-n1ccc(C)n1 (stereo not shown)
Method: competition with immobilised ligand
Concentration: 1 µM
| target | assay | remaining binding [%] |
| --- | --- | --- |
| MAP2K2 (Homo sapiens, UniProt P36507) | cell-free assay | 98 |
| FGFR4 (Homo sapiens, UniProt P22455) | cell-free assay | 100 |
| TNIK (Homo sapiens, UniProt Q9UKE5) | cell-free assay | 81 |
| NEK11 (Homo sapiens, UniProt Q8NG66) | cell-free assay | 99 |
| Ribosomal protein S6 kinase alpha-2, C-terminal kinase domain (RPS6KA2, Homo sapiens, UniProt Q15349) | cell-free assay | 99 |
| CILK1 (Homo sapiens, UniProt Q9UPZ9) | binding | 63 |
| YES1 (Homo sapiens, UniProt P07947) | cell-free assay | 100 |
| BMX (Homo sapiens, UniProt P51813) | cell-free assay | 100 |

Series 3
Cell line: mouse MPNST tumor cells
Method: high-content nuclear imaging
Item: cell number
Concentration: 10 µM
Time: 12 h
Setting: mean of 2 replicates
Reference: plate mean
Reading: higher = more cells
| SMILES | nuclei count |
| --- | --- |
| CCOCCn1c(N2CCCN(C)CC2)nc2ccccc21 | 0.327 z-score |
| CCN(CC)C(=O)N1CCN(C)CC1 | 1.6 z-score and 0.358 z-score |
| COCCc1ccc(OCC(O)CNC(C)C)cc1 (racemic) | 2.08 z-score |
| Cc1ncc([N+](=O)[O-])n1CC(O)CCl (stereo not shown) | -0.154 z-score |
| Cc1cc(Cn2c(=O)n(Cc3cnc(C)s3)c(=O)c3cc(S(=O)(=O)NC4(C)CC4)ccc32)n(C)n1 | 1.54 z-score |

Single results of other studies
| Structure (SMILES) | cell line | assay | setting | endpoint | result |
| --- | --- | --- | --- | --- | --- |
| CC(C)C[C@@H]1NC(=O)[C@@H](N(C)C(=O)[C@H](CC2CCC2)NC(=O)[C@@H]2C[C@@H](F)CN2C(=O)C2(C(F)(F)F)CC(F)(F)C2)CCCCNC(=O)C2(CC2)NC(=O)[C@H](Cc2cc(Cl)ccc2Cl)N(C)C1=O | human CD34+ HSPC | EdU flow cytometry | 1000 nM, 24 h | S-phase cells | 44.9% and 45.3% |
